Measured values of several laboratories.
Each line is one published result; not all experiments were run side by side. Values joined by “and” are separate records of one study, mostly repeats; a detail may differ.
Chain of UniProt O75762 (whole entry, looked up): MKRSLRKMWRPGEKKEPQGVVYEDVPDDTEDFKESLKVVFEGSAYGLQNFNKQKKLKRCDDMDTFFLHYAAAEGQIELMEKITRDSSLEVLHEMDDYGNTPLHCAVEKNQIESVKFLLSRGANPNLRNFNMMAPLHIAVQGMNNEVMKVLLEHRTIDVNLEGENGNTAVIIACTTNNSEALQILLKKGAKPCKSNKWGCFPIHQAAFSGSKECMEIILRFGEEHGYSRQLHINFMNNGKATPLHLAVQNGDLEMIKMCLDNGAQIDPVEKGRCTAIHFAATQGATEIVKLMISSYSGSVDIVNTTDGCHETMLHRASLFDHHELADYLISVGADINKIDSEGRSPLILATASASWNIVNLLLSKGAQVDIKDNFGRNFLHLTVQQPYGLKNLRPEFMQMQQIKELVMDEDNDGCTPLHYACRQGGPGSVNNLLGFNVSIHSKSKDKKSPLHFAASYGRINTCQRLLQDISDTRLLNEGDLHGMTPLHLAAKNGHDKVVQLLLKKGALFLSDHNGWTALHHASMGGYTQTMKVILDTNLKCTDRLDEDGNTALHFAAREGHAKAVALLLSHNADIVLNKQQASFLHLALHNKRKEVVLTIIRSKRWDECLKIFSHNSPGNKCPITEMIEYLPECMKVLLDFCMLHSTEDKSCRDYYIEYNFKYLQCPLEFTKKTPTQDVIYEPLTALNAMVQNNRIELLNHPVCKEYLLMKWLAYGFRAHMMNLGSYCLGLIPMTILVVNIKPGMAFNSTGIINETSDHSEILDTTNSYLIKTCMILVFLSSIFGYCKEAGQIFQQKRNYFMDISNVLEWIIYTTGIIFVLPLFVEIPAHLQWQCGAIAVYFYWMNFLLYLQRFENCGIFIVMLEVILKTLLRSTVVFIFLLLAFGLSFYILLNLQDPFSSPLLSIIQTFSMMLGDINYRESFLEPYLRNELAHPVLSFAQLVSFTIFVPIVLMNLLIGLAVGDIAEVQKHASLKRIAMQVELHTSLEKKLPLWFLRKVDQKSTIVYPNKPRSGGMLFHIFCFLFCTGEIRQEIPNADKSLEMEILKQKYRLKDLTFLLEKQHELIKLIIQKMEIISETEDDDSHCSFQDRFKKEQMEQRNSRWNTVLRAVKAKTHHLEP
Chain of UniProt Q9NYV8 (whole entry, unmodified, looked up): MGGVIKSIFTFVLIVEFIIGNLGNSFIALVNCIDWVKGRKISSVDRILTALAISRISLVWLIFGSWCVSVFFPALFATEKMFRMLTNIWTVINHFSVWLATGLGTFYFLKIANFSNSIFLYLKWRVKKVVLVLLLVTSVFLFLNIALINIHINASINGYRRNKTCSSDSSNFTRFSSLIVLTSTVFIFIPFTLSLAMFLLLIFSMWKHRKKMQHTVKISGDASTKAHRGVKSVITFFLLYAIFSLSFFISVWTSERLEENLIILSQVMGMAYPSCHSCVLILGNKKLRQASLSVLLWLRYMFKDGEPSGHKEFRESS
Chain of UniProt Q96S37 (whole entry, looked up): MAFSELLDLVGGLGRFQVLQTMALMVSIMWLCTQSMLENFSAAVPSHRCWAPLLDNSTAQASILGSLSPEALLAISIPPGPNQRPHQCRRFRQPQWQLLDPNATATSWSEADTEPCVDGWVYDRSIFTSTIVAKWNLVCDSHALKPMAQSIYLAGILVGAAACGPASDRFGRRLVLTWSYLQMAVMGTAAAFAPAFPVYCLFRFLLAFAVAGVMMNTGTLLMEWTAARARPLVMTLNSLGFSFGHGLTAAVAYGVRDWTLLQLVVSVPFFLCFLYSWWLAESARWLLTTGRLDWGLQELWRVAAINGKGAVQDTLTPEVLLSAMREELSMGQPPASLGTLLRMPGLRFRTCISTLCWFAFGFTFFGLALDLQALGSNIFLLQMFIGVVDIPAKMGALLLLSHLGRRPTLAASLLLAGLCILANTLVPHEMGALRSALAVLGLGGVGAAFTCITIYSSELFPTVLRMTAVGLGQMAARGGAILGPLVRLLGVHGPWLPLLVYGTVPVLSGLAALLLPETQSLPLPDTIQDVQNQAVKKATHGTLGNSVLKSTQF
Chain of UniProt P22736 (whole entry, looked up): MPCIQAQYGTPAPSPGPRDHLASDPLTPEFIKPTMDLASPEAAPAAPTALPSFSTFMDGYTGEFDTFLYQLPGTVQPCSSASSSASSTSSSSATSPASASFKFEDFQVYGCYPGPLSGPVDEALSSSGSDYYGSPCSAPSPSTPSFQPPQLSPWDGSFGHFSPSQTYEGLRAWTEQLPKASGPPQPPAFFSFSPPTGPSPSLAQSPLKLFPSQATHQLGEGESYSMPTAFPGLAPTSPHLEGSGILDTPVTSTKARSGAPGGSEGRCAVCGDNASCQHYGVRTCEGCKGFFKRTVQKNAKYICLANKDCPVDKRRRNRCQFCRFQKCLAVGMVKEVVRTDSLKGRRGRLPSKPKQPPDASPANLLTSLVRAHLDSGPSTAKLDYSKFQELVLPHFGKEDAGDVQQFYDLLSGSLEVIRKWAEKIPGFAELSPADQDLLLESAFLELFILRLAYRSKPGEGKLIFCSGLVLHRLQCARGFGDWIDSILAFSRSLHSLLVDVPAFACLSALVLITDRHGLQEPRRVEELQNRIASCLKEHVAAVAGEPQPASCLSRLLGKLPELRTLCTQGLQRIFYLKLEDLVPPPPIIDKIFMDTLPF
Chain of UniProt P51575 (whole entry, unmodified, looked up): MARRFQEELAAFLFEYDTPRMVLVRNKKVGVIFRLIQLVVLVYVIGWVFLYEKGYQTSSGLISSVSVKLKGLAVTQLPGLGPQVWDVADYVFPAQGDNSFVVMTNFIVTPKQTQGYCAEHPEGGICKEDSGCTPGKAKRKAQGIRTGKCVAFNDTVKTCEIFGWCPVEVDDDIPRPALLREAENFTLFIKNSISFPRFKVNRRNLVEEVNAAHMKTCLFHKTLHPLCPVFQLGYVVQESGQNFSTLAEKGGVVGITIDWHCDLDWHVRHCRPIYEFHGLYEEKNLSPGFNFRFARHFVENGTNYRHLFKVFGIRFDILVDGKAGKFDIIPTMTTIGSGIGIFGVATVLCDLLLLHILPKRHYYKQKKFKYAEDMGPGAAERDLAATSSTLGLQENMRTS
Chain of UniProt P0A8T7 (whole entry, looked up): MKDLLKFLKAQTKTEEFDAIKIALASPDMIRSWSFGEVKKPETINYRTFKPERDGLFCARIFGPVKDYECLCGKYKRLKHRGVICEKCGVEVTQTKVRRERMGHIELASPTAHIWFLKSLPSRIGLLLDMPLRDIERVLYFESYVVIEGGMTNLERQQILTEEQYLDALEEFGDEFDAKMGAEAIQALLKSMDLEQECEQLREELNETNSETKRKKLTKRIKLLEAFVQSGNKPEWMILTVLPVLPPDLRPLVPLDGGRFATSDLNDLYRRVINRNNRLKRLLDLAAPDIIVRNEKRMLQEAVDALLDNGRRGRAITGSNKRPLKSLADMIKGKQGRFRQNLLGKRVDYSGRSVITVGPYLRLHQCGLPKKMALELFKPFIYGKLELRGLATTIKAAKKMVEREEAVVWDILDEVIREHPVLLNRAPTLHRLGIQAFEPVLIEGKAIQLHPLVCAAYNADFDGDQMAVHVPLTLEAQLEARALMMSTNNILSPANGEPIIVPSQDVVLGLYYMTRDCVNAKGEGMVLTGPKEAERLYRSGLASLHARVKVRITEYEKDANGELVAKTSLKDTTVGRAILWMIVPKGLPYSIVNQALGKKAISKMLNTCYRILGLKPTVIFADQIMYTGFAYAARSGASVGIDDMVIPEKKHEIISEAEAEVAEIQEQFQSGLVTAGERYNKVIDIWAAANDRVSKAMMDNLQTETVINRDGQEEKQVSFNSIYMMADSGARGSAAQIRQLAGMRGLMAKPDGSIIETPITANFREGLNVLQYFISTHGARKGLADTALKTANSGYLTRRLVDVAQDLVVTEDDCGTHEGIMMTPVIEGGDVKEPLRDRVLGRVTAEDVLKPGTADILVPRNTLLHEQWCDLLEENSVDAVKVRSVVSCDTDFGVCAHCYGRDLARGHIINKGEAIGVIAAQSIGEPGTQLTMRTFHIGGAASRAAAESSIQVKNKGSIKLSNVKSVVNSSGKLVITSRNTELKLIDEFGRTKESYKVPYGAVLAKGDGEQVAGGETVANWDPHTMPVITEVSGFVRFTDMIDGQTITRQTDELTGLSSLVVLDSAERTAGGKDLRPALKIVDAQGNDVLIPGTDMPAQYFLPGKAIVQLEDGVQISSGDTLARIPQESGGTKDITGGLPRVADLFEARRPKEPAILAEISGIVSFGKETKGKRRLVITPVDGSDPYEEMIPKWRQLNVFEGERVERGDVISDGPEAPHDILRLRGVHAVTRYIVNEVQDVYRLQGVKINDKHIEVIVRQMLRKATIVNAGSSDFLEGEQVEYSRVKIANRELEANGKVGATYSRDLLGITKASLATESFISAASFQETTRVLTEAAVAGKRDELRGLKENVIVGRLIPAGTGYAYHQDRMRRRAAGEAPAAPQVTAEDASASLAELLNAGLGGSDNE
Chain of UniProt Q07011 (whole entry, unmodified, looked up): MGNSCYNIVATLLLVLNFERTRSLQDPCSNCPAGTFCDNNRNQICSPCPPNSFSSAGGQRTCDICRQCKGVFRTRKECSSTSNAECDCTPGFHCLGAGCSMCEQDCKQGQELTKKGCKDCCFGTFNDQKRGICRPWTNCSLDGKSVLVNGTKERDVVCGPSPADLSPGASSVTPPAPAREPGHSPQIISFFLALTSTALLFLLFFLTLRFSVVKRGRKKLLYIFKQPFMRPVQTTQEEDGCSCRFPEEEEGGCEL

CC[C@H](C)[C@@H]1NC(=O)[C@H](C)NC(=O)[C@H]([C@@H](C)CC)NC(=O)[C@H](CCC(N)=O)NC(=O)[C@H](C)NC(=O)[C@H](CCCNC(=N)N)NC(=O)[C@H](C(C)C)NC(=O)[C@H](CC(C)C)NC(=O)[C@H](CCC(=O)O)NC(=O)[C@H](CCCNC(=N)N)NC(=O)CNC(=O)[C@@H](NC(=O)[C@H](CC(C)C)NC(=O)[C@H](CCCCN)NC(=O)[C@@H](NC(=O)[C@@H](NC(=O)[C@H](CCC(=O)O)NC(=O)[C@H](CCC(=O)O)NC(=O)[C@H](CCSC)NC(=O)[C@H](Cc2c[nH]c3ccccc23)NC(=O)[C@H](CO)NC(=O)[C@@H](N)CC(=O)O)C(C)C)[C@@H](C)CC)CSSC[C@@H]2NC(=O)[C@@H](NC(=O)[C@H](CCCCN)NC(=O)[C@H](CC(N)=O)NC(=O)[C@H](C)NC(=O)[C@H](CC(C)C)NC(=O)[C@H](C)NC(=O)[C@H](CO)NC(=O)[C@H](Cc3ccc(O)cc3)NC(=O)[C@H](CC(C)C)NC(=O)[C@H](CCC(N)=O)NC(=O)c3ccc(-c4c5ccc(=[N+](C)C)cc-5oc5cc(N(C)C)ccc45)c(C(=O)[O-])c3)CSSC[C@H](NC(=O)CNC(=O)[C@H](C(C)C)NC(=O)[C@H](Cc3c[nH]cn3)NC2=O)C(=O)N[C@@H]([C@@H](C)O)C(=O)N[C@@H](CCCCN)C(=O)N[C@@H](CCCNC(=N)N)C(=O)N[C@@H](CO)C(=O)N[C@@H](CC(C)C)C(=O)N[C@@H](C)C(=O)N[C@@H](CCCNC(=N)N)C(=O)N[C@@H](Cc2ccccc2)C(=O)N[C@H](C(=O)O)CSSC[C@@H](C(=O)NCC(=O)N[C@@H](CCSC)C(=O)N[C@@H](CO)C(=O)N[C@H](C(=O)N[C@@H](Cc2c[nH]c3ccccc23)C(=O)N[C@@H](CO)C(=O)O)[C@@H](C)O)NC1=O — koff slow phase (Relaxin receptor 1 (RXFP1, Homo sapiens, UniProt Q9HBX9, F76A/Y80A); NanoBRET dissociation; infinite dilution, with: 1 µM relaxin): 0.000831 s⁻¹
CCCC[C@@H]1NC(=O)[C@H](Cc2ccc(O)cc2)NC(=O)[C@@H]2CCCN2C(=O)[C@H](CC(=O)O)NC(=O)[C@H](C)NC(=O)[C@H](Cc2ccccc2)NC(=O)[C@@H]2CSCCC(=O)N3CN(CN(C3)C(=O)CCSC[C@@H](C(=O)N[C@@H](C)C(N)=O)NC1=O)C(=O)CCSC[C@H](NC(C)=O)C(=O)N[C@@H](CC(C)(C)C)C(=O)N1CCC[C@H]1C(=O)N[C@@H](CCC(=O)O)C(=O)N[C@H](CCCCNC(=O)CCc1cn(CCOCCOCCOCCOCCOCCC(=O)NCCCC[C@H]3NC(=O)[C@H](Cc4cccc5ccccc45)NC(=O)[C@@H]4CCCN4C(=O)[C@@H](NC(C)=O)CSCCC(=O)N4CN5CN(C4)C(=O)CCSC[C@H](NC3=O)C(=O)N[C@@H](CCSC)C(=O)N[C@@H](CCCCNC(=N)N)C(=O)N[C@@H](CC(=O)O)C(=O)N[C@@H](Cc3c[nH]c4ccccc34)C(=O)N[C@@H](CO)C(=O)N[C@@H]([C@@H](C)O)C(=O)N3CCC[C@H]3C(=O)N3C[C@H](O)C[C@H]3C(=O)N[C@@H](Cc3c[nH]c4ccccc34)C(=O)N[C@H](C(N)=O)CSCCC5=O)nn1)C(=O)N1CCC[C@H]1C(=O)N[C@@H](Cc1ccc(O)cc1)C(=O)N2 — Emax (Tumor necrosis factor receptor superfamily member 9/Nectin-4 (Homo sapiens, UniProt Q07011+Q96NY8); reporter gene, agonist; HT-1376 coculture with reporter cells; baseline: background): 44 fold
[H]/N=C(/N)NCC(=O)O — normalised MST signal (Sodium- and chloride-dependent taurine transporter (SLC6A6, Homo sapiens, UniProt P31641, G62A); binding, microscale thermophoresis; 244 nM, room temperature, with: 50 nM labelled protein; higher = more binding): 0.0224
COc1cccc2c(Nc3ccc4[nH]c(C(=O)N/N=C/c5ccc(SC)cc5)cc4c3)cc(C)nc12 — activation (Nuclear receptor subfamily 4 group A member 1 (NR4A1, Homo sapiens, UniProt P22736); reporter gene, NBRE reporter full-length; 3 µM; baseline: vehicle): 1.3 fold
O=c1ccn([C@@H]2O[C@H](COP(=O)(O)OP(=O)(O)OP(=O)(O)O)[C@@H](O)[C@H]2O)c(=O)[nH]1 — incorporation efficiency (DNA-directed RNA polymerase subunit beta' / DNA-directed RNA polymerase subunit beta (rpoC/rpoB, Escherichia coli, UniProt P0A8T7+P0A8V2); RNA extension, denaturing gel; Escherichia coli, elongation complex, 6-MI template; 5 µM, 10 min, 25 °C): 89%
O=C(O)c1ccccc1Nc1cccc(C(F)(F)F)c1 — ΔBRET (Taste receptor type 2 member 14 (TAS2R14, Homo sapiens, UniProt Q9NYV8); G-protein dissociation, TRUPATH gustducin BRET; 1 µM, wild-type receptor, unit not given; baseline: vehicle): 0.00561 and 0.00673 and -0.0303 and -0.00466 and 0.0107 and 0.0661 and 0.00771
Cc1ncsc1-c1ccc(CNC(=O)[C@@H]2C[C@H](O)CN2C(=O)[C@@H](NC(=O)C2(F)CC2)C(C)(C)C)c(OCCOc2ccc(CN3CCN(c4cc(-c5ccccc5O)nnc4N)CC3)cc2)c1 — cooperativity factor alpha (Protein polybromo-1, BD5 (PBRM1, Homo sapiens, UniProt Q86U86); ternary complex binding, TR-FRET competition; with: VCB complex): 1
C[C@H]1O[C@@H](O[C@H]2CC[C@@]3(C)[C@@H](CC[C@]4(C)[C@@H]3C=C[C@]35OC[C@@]6(CCC(C)(C)C[C@H]63)[C@@H](O)C[C@]54C)[C@]2(C)CO)[C@H](O)[C@@H](O[C@@H]2O[C@H](CO)[C@@H](O)[C@H](O)[C@H]2O)[C@H]1O — MST normalised fluorescence (NAD-dependent protein deacetylase sirtuin-1 (SIRT1, Homo sapiens, UniProt Q96EB6); binding, microscale thermophoresis; 140 nM): 885 a.u.
CCc1oc2ccccc2c1C(=O)c1cc(Br)c(O)c(Br)c1 — inhibition (Solute carrier family 22 member 12 (SLC22A12, Homo sapiens, UniProt Q96S37); urate uptake; HEK-293T; 0.5 µM, 10 min, 37 °C, with: [14C]urate 200 µM): 68.5% and 73% and 69.3% and 62.9% and 68%
[Ca] — potentiation (Transient receptor potential cation channel subfamily A member 1 (TRPA1, Homo sapiens, UniProt O75762); ion current, two-electrode voltage clamp; Xenopus oocytes; 100 µM, +80 mV, with: extracellular Ca2+; baseline: current before Ca2+ addition): 1.65 fold change and 1.43 fold change and 1.3 fold change and 1.12 fold change and 1.35 fold change
C=CC(=O)N1CCC(COCC(=O)N2CCN(c3nc(-c4cnc(N)nc4C(F)F)nc(N4CCOC[C@@H]4C)n3)CC2)CC1 — remaining binding (Non-receptor tyrosine-protein kinase TYK2, JH2 pseudokinase domain (TYK2, Homo sapiens, UniProt P29597); KINOMEscan; 1 µM; baseline: DMSO control): 65%
Nc1ncnc2c1ncn2[C@@H]1O[C@H](COP(=O)(O)CP(=O)(O)OP(=O)(O)O)[C@@H](O)[C@H]1O — specific binding (P2X purinoceptor 1 (P2RX1, Homo sapiens, UniProt P51575, F188L); saturation binding; HEK293; 13 nM): 1290 CCPM and 1540 CCPM

Some of these lines once more:
CC[C@H](C)[C@@H]1NC(=O)[C@H](C)NC(=O)[C@H]([C@@H](C)CC)NC(=O)[C@H](CCC(N)=O)NC(=O)[C@H](C)NC(=O)[C@H](CCCNC(=N)N)NC(=O)[C@H](C(C)C)NC(=O)[C@H](CC(C)C)NC(=O)[C@H](CCC(=O)O)NC(=O)[C@H](CCCNC(=N)N)NC(=O)CNC(=O)[C@@H](NC(=O)[C@H](CC(C)C)NC(=O)[C@H](CCCCN)NC(=O)[C@@H](NC(=O)[C@@H](NC(=O)[C@H](CCC(=O)O)NC(=O)[C@H](CCC(=O)O)NC(=O)[C@H](CCSC)NC(=O)[C@H](Cc2c[nH]c3ccccc23)NC(=O)[C@H](CO)NC(=O)[C@@H](N)CC(=O)O)C(C)C)[C@@H](C)CC)CSSC[C@@H]2NC(=O)[C@@H](NC(=O)[C@H](CCCCN)NC(=O)[C@H](CC(N)=O)NC(=O)[C@H](C)NC(=O)[C@H](CC(C)C)NC(=O)[C@H](C)NC(=O)[C@H](CO)NC(=O)[C@H](Cc3ccc(O)cc3)NC(=O)[C@H](CC(C)C)NC(=O)[C@H](CCC(N)=O)NC(=O)c3ccc(-c4c5ccc(=[N+](C)C)cc-5oc5cc(N(C)C)ccc45)c(C(=O)[O-])c3)CSSC[C@H](NC(=O)CNC(=O)[C@H](C(C)C)NC(=O)[C@H](Cc3c[nH]cn3)NC2=O)C(=O)N[C@@H]([C@@H](C)O)C(=O)N[C@@H](CCCCN)C(=O)N[C@@H](CCCNC(=N)N)C(=O)N[C@@H](CO)C(=O)N[C@@H](CC(C)C)C(=O)N[C@@H](C)C(=O)N[C@@H](CCCNC(=N)N)C(=O)N[C@@H](Cc2ccccc2)C(=O)N[C@H](C(=O)O)CSSC[C@@H](C(=O)NCC(=O)N[C@@H](CCSC)C(=O)N[C@@H](CO)C(=O)N[C@H](C(=O)N[C@@H](Cc2c[nH]c3ccccc23)C(=O)N[C@@H](CO)C(=O)O)[C@@H](C)O)NC1=O — koff slow phase (Relaxin receptor 1 (RXFP1, Homo sapiens, UniProt Q9HBX9, F76A/Y80A); NanoBRET dissociation; infinite dilution, with: 1 µM relaxin): 0.000831 s⁻¹
C[C@H]1O[C@@H](O[C@H]2CC[C@@]3(C)[C@@H](CC[C@]4(C)[C@@H]3C=C[C@]35OC[C@@]6(CCC(C)(C)C[C@H]63)[C@@H](O)C[C@]54C)[C@]2(C)CO)[C@H](O)[C@@H](O[C@@H]2O[C@H](CO)[C@@H](O)[C@H](O)[C@H]2O)[C@H]1O — MST normalised fluorescence (NAD-dependent protein deacetylase sirtuin-1 (SIRT1, Homo sapiens, UniProt Q96EB6); binding, microscale thermophoresis; 140 nM): 885 a.u.
